Assay results pooled from the literature.
Numbered parts are unrelated; each lists some results of a single study. Positions count from the first letter of the parent shown.

Series 1 — method: RNA Bind-n-Seq; molecule type: RNA; sample: in vitro; tested at: 100 nM; relative to: input RNA pool; reading: higher = stronger binding; endpoint: bound/input enrichment
Target: RING finger protein unkempt homolog, zinc fingers 1-6, SBP tag (UNK, Homo sapiens, UniProt Q9C0B0, residues 30-357)
Sequence of UniProt Q9C0B0 (30-357, looked up): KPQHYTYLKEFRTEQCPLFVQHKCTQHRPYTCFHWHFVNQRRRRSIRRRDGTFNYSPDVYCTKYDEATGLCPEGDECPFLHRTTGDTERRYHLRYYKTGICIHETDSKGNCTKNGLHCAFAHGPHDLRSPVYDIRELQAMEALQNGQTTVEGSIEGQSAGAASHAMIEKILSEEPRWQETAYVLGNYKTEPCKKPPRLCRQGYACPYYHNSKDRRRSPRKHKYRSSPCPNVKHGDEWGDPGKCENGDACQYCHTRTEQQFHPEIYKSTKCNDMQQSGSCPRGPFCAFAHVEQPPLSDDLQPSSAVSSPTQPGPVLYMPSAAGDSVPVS
Setting: RNA with constant flanks, vertebrate orthologous sites, ends assumed
Constant ends, left off below: GGGAGUUCUACAGUCCGACGAUC … CAACAGAGGAUUGAGCAUCA
GUUUUUUUGUUUUGCACAUGACCGUGUGUGUGUUGAUCUGAGGGAGGAGGAGGGGUCCUGGAGCAGUUGGGUCUCCAGUGCCACCACCCUCACCAUCCGACCUGGUACCUUUGCCACGUU: 0.312 ratio
AUCAUCUGACUGGAUGAAGACUGUCCCAAGUUACAACCAAACAAAUAGCUCCAUGGACUUUAGAAAUUACAUGAUGAGAGAUGAGAAUUUGGAGCCACUGCCUAAAAACUGGGAAAUGGC: 0.444 ratio
ACUGUUGUUAAGCACUGUGUUCCAGACUGUGUCUGACUUAGUGUAACCUAGGAGAUUUUAUAGUUUUAUUUUAAUGAAAUCCUGAUUGACGCAGAGCUGUGGGGAAAAUGGUCCCUUUUA: 2.31 ratio
AGUAAUGUGUUUAUUUAUUGUGCAUACGUAUGUGCUAAGGAUUGUGUUAGGGUUGAUAAUUAGUGGAUUGAUUCCACUUUGUCGUAUUGUUUUCAUUAUUGAAAAUAAACGUAACUUUGU: 0.519 ratio
UCUUAUUGAUCAGGUCUGUAAAUGUGUACUAAAAAAAUCAGAGUUUAUUUAUAAACAGAAUAGUUUAUUUAAAGAGAAGCUCUUUUCCUUAUUGAUAUCAUGGUAUGCAUUAAUUCCAUU: 0.0659 ratio
CUACUAUAAACAACUCAGGGCAGUAUUCUCGAUAUCCUUACAGUAACCUAAAUCAGGGAUUAGUUAACAAUACAGGGAUGAAUCAGAAUUUAGGCCUUACAAAUAAUACUCCAAUGAAUC: 1.26 ratio
UAUUGUACGUAGAGAAAAAAUUUUCCUUGACCCCAUUGUGAAAUUCCCUAGCAAUUUAUUUAGAAUCUUCAUUUUUCUCAUUCAAGCUCACUGUAUUAGUUAUUUUUAGCCCAUAAUUAA: 4.99 ratio
CUGGGAAAUACUCUGGGGAGUGGCUGGACACUUAGCAUUGUUUGAUUUAUGACCUUGACAGUAGAUAGGCUUGUGGGGGUUUUGUUUUUGUUUUUUAAUUUAAUGAUAUUAAAACGUAAU: 1.01 ratio

Series 2 — method: protein-binding microarray; molecule type: double-stranded DNA, one strand shown; sample: in vitro; tested at: 2200 nM top; setting: 60-bp whole probe; with: salmon DNA 0.4 mg/ml; relative to: random background probes; reading: higher = stronger binding; endpoint: fitted relative affinity; constant ends, left off below: GCCTAGCAC … GTCTTGATTCGCTTGACGCTGCTG
Target: Interferon regulatory factor 7, full length, phosphomimetic (IRF7, Homo sapiens, UniProt Q92985, residues 1-503, S471D/S472D/S475D/S476D/S477D/S483D/S484D/S487D)
Construct (chain): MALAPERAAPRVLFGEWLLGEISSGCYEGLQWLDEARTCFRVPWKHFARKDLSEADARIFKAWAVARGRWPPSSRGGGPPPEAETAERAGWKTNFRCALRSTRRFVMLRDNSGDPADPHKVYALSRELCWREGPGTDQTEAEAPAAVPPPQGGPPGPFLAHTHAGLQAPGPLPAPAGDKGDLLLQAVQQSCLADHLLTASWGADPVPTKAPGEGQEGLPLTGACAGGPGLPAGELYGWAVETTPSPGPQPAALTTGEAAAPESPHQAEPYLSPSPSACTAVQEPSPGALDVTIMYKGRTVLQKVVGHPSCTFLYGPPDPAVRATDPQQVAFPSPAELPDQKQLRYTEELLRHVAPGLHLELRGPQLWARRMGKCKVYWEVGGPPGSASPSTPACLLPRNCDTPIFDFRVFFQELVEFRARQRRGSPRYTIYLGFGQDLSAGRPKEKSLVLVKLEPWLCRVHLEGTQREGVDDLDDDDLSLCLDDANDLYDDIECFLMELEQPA
TTAGGACTGGGGTTTTGGTTAGTGCTA: -0.0406 z-score
TTAGGACTGGGTATCCGTTAGTGCTAG: -0.287 z-score
GACGGACTGGGGACTCGGGACGTGCTA: -0.897 z-score
TCACTTTTTTGTTCCACACTGTGCTAG: 3.33 z-score
GACGGTATCCAACTGCTGACGTGCTAG: 0.543 z-score
TTAGGTTTCGGGATCGGTTAGTGCTAG: 5.89 z-score
GACGGGCTCCTACTGCTGACGTGCTAG: -0.342 z-score
TTAGGTCTTGGTCTCGGTTAGTGCTAG: 0.753 z-score
TTAGGTCTGGGGTTTCGGTTAGTGCTA: 2.69 z-score
TTAGGTATCGGTATCTGTTAGTGCTAG: 1.15 z-score
TTAGGTATCGGTCTCGGTTAGTGCTAG: 1.04 z-score
TTAGAACTGGGGACTGGATCAGTGCTA: -0.313 z-score
TTAGATTTCTGTATCGATTAGTGCTAG: 1.06 z-score
GACGGTTGCGGGACTGGGGACGTGCTA: -0.588 z-score
CTAGAACTGAGTCTCGATTAGTGCTAG: -0.165 z-score
TTAGGTATCGGGACTCGGTTAGTGCTA: 0.486 z-score
TCAATTTGGCATATCTAACTGTGCTAG: 0.703 z-score
TTAGAACTGAGACTGGATTGGTGCTAG: -0.573 z-score
TTAGAACTGGGGTATCGATCAGTGCTA: -0.134 z-score

Series 3 — target: CCNB3, cyclin fold, Cln2 fusion (human); method: yeast growth competition, sequencing; sample: yeast; setting: weak parent motif; relative to: not given; reading: higher = stronger binding; endpoint: normalised enrichment score
Starting sequence: NPAT docking peptide (human); PCHRRVLCFDSTT
PCHRKVLCFDSTT [R5K]: 0.659
PAHRRVLCFDSTT [C2A]: 0.63
ACHRRVLCFDSTT [P1A]: 0.143
PCHARVLCFDSTT [R4A]: 0.706
PCHRAVACFDSTT [R5A L7A]: 0.162
PCHRKVLCLDSTT [R5K F9L]: 0.00805
PCARRVLCFDSTT [H3A]: 2.13
PCHRRVLCADSTT [F9A]: -0.107
PCHRRVACFDSTT [L7A]: 0.025
PCHRRVLCFDATT [S11A]: -0.0611

Series 4 — method: RNA Bind-n-Seq; molecule type: RNA; sample: in vitro; tested at: 200 nM; setting: whole 134-nt RNA, ends assumed; with: 150 mM LiCl; relative to: input library; reading: higher = stronger binding; endpoint: log2 enrichment; each molecule: 7-deaza-guanosine replaces G
Target: Fragile X messenger ribonucleoprotein 1, C-terminal low-complexity region (Fmr1, Mus musculus, UniProt P35922)
Constant ends, left off below: GGGAGUUCUACAGUCCGACGAUC … UGGAAUUCUCGGGUGUCAAGG
UAACUUUAGAGGAGGAUAUGAUGGAUAUGGCAGUGGACGUGGAUUUGGGGAUGGCUAUAAUGGGUAUGGAGGAGGACCUGGAGGUGGCAA: 0.83
UGCCUACGUAAUUUUUUAUCUUGAAAUAUUCAAAAUUAGGAGCCAGAUGACCAAGAUGCUCCAGAUGAACAUGAGUCGCCUCCACCUGAA: -0.413
AAGUCCUGUGCUACACAUCGUAUGUACCGAAUCGGAAAAAGGAAAAAGGGAAAAAGGAAAGUAUUAUGUUACGCCGUUCGGAUCUGCACU: -0.729
UCCUGUGCUACACAUCGUAUGUACCGAAUCGGGUUUUUUUGGUUUUUUUGGUUUUUUUGGAAAGUAUUAUGUUACGCCGUUCGGAUCUGC: -0.374
UAACUUUAGAGGAGGAUCUGAUGGAUAUGGCAGUGGACGUGGAUUUGGGGAUGGCUAUAAUGGGUAUGGAGGAGGACCUGGAGGAGGCAA: 0.763
UGGCCCUGGUGGCAUGCGGGGAGGAAGAGGUGGCCUCAUGGAUCGUGGUGGUCCCGGUGGAAUGCUCAGAGGUGGCCGUGGUGGAGACAG: -0.789
UCCCGACAUCUGUGGCCCUGGCACCAAGAAGGUUCAUGUCAUCUUCAACUACAAGGGCAAGAACGUGCUGAUCAACAAGGACAUCCGUUG: -0.151
UCCUGUGCUACACAUCGUAUGUACCGAAUCGGCCCCCCGGCCCCCCGGGGCCCCCCGGGGAAAGUAUUAUGUUACGCCGUUCGGAUCUGC: -0.29

For quick reference, copied from above (series 1):
UAUUGUACGUAGAGAAAAAAUUUUCCUUGACCCCAUUGUGAAAUUCCCUAGCAAUUUAUUUAGAAUCUUCAUUUUUCUCAUUCAAGCUCACUGUAUUAGUUAUUUUUAGCCCAUAAUUAA: 4.99 ratio
CUACUAUAAACAACUCAGGGCAGUAUUCUCGAUAUCCUUACAGUAACCUAAAUCAGGGAUUAGUUAACAAUACAGGGAUGAAUCAGAAUUUAGGCCUUACAAAUAAUACUCCAAUGAAUC: 1.26 ratio
UCUUAUUGAUCAGGUCUGUAAAUGUGUACUAAAAAAAUCAGAGUUUAUUUAUAAACAGAAUAGUUUAUUUAAAGAGAAGCUCUUUUCCUUAUUGAUAUCAUGGUAUGCAUUAAUUCCAUU: 0.0659 ratio
GUUUUUUUGUUUUGCACAUGACCGUGUGUGUGUUGAUCUGAGGGAGGAGGAGGGGUCCUGGAGCAGUUGGGUCUCCAGUGCCACCACCCUCACCAUCCGACCUGGUACCUUUGCCACGUU: 0.312 ratio
CUGGGAAAUACUCUGGGGAGUGGCUGGACACUUAGCAUUGUUUGAUUUAUGACCUUGACAGUAGAUAGGCUUGUGGGGGUUUUGUUUUUGUUUUUUAAUUUAAUGAUAUUAAAACGUAAU: 1.01 ratio
AGUAAUGUGUUUAUUUAUUGUGCAUACGUAUGUGCUAAGGAUUGUGUUAGGGUUGAUAAUUAGUGGAUUGAUUCCACUUUGUCGUAUUGUUUUCAUUAUUGAAAAUAAACGUAACUUUGU: 0.519 ratio
AUCAUCUGACUGGAUGAAGACUGUCCCAAGUUACAACCAAACAAAUAGCUCCAUGGACUUUAGAAAUUACAUGAUGAGAGAUGAGAAUUUGGAGCCACUGCCUAAAAACUGGGAAAUGGC: 0.444 ratio
ACUGUUGUUAAGCACUGUGUUCCAGACUGUGUCUGACUUAGUGUAACCUAGGAGAUUUUAUAGUUUUAUUUUAAUGAAAUCCUGAUUGACGCAGAGCUGUGGGGAAAAUGGUCCCUUUUA: 2.31 ratio
